Measured values pooled from the literature.
Protocols differ between the studies behind these lines. Numbers after ± are the reported error.
icaR full length assumed: icaR full length assumed (Staphylococcus epidermidis, UniProt Q5HKQ1)
Sequence of UniProt Q5HKQ1 (whole entry, looked up): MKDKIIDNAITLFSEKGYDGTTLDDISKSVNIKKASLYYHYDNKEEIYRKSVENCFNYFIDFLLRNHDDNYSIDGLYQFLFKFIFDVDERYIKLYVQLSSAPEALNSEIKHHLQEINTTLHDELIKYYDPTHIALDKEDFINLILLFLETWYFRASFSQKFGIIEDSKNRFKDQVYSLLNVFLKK
mwoIR full length assumed S310R: mwoIR full length assumed S310R (Methanothermobacter wolfeii, UniProt O59646)
Sequence of UniProt O59646 (whole entry, unmodified, looked up): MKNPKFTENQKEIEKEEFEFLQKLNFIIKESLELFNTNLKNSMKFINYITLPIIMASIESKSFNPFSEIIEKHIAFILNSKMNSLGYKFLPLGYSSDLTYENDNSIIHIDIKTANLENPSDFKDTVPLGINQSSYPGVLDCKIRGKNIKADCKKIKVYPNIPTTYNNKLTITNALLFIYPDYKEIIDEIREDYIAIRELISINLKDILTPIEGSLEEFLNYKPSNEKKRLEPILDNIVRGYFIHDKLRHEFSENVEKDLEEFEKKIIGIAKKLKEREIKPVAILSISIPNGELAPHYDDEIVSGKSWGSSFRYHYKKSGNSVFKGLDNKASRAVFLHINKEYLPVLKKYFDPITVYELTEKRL
T1: Rap1a without signal peptide (Serratia marcescens); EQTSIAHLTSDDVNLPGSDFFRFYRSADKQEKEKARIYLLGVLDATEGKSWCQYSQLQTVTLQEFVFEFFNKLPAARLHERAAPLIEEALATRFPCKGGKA
B1: Ssp1 (Serratia marcescens); chain MKPLYRQLKSSHYSSDYSSPGYLAAEAVYAEIGYELDTLLKQNPGYANTCAVRMSLALLKTGISFKGRLPIKKGAYKGKTIEPGAKLLADQLHRSSSFGKAKIFFNAPDAEKGIGNKKGVVFFNKITNYDGGHIDLIEPENSLLTCHSHCYFNCKEVWFWELS

Molecule	target or system	test	system	setting	quantity	result
AGCATATGCTTTACAACCTAACTAACGA (dsDNA)	icaR full length assumed	EMSA	double-stranded DNA, one strand shown	–	binding	no binding
GACAGTGCAATCTCTGCGACAGT (dsDNA)	mwoIR full length assumed S310R	filter binding	double-stranded DNA, one strand shown	added: Ca2+ 10 mM	Kd	110 ± 46.8 nM
CGTAATCTGCAGGCATGGTCAATTT (ssDNA)	gene 4 protein primase domain, 1-271 (Escherichia phage T7, UniProt P03692)	SPR	single-stranded DNA	added: ATP 0.2 mM, CTP 0.2 mM, Mg2+ 10 mM	Kd	22000 ± 1800 nM
CTTTACAACCTAACTAACGAAAGGTAGG (dsDNA)	icaR full length assumed	EMSA	double-stranded DNA, one strand shown	–	binding	binds
GACAGTGCTATCTCAGCGACAGT (dsDNA)	mwoIR full length assumed S310R	filter binding	double-stranded DNA, one strand shown	added: Ca2+ 10 mM	Kd	26.2 ± 2.7 nM
CGTAATCTGCAGGCATGGTGAATTT (ssDNA)	gene 4 protein primase domain, 1-271 K122A (Escherichia phage T7, UniProt P03692)	SPR	single-stranded DNA	–	binding	no binding
GACAGTGCCATCTCGGCGACAGT (dsDNA)	mwoIR full length assumed (Methanothermobacter wolfeii, UniProt O59646)	filter binding	double-stranded DNA, one strand shown	added: Ca2+ 10 mM	Kd	0.00234 ± 0.00102 nM
B1 (Ssp1)	T1, Rap1a without signal peptide (Serratia marcescens)	ITC	–	apparent, dimer, read off a plot	Kd	8 nM

For quick reference, copied from above:
Molecule	target or system	test	system	setting	quantity	result
CGTAATCTGCAGGCATGGTGAATTT (ssDNA)	gene 4 protein primase domain, 1-271 K122A (Escherichia phage T7, UniProt P03692)	SPR	single-stranded DNA	–	binding	no binding
